Measured values gathered from unrelated publications.
Compare with care: the assays were run in different laboratories. “And” joins repeats or separate records; there may be more than shown. ± gives the spread as reported.

CCN(CC)CC#CCNc1ccnc2cc(Cl)ccc12
revertants (Salmonella typhimurium; mini-Ames test; TA102; 250.0 µg/well, without S9): 76 revertants/well and 71 revertants/well

CCCCCC(=O)N[C@@H](Cc1ccc(N)cc1)C(=O)N[C@@H](CCCC)C(=O)N[C@@H](CC(C)C)C(=O)[C@@]1(C)CO1
selectivity index (Trypanosoma brucei brucei; HepG2 cells, Lister 427; baseline: HepG2 CC50 over T. brucei EC50): < 1

CC(C)(C)NCC(SS(=O)(=O)O)c1ccccc1 (stereo not shown)
body weight decrease (Schistosoma mansoni; perfusion day 52; infected Swiss Webster mice; 600 mg/kg single dose, dosed day 7 post-infection; baseline: vehicle control): 2.47%

O=C1NC2(CC2)COc2ncc(F)cc2[C@H]2COCCN2c2ccn3ncc1c3n2
revertant colonies (Salmonella typhimurium; Ames test; TA100; 5000 µg/plate, 48 h, added: without S9): 65 ± 12 revertants/plate

Nc1nc2cc(C(=O)c3ccc(F)cc3)ccc2[nH]1
revertants (Salmonella typhimurium; Ames preincubation test; TA1537; 9.8 µg per plate, 3 days, without S9): 14 revertants per plate

CCCCCC(=O)NC(CC(=O)N(CC)CC)C(=O)NC(Cc1ccc(F)cc1)C(=O)NC(Cc1ccc(F)cc1F)C(=O)C1(C)CO1 (stereo not shown)
selectivity index (Trypanosoma brucei brucei; HepG2 cells, Lister 427; baseline: HepG2 CC50 over T. brucei EC50): > 80 and 155

CC(C)OCCOCc1ccc(OCC(O)CN(N=O)C(C)C)cc1 (stereo not shown)
revertant fold increase (Salmonella typhimurium; Ames test; TA98; 5000 µg/plate, without metabolic activation; baseline: solvent control): 0.2 fold

O=C1C2CC3CC1CC(C(=O)N1CCN(c4ccc([N+](=O)[O-])c5ncccc45)CC1)(C3)C2
revertant colony count (Salmonella typhimurium; Ames test; TA1535; 0.05 µg/well, without S9 activation): 1 colonies/well

COC(=O)Nc1nc2cc(C(O)c3ccc(F)cc3)ccc2[nH]1 (stereo not shown)
revertants (Salmonella typhimurium; Ames preincubation test; TA98; 54.7 µg/plate, without S9): 22 revertants/plate

CCCCCC(=O)N[C@@H](Cc1c[nH]c2ccccc12)C(=O)N[C@@H](CCCC)C(=O)N[C@@H](CC(C)C)C(=O)[C@@]1(C)CO1
selectivity index (Trypanosoma brucei brucei; HepG2 cells, Lister 427; baseline: HepG2 CC50 over T. brucei EC50): < 1

Repeated from above:
Nc1nc2cc(C(=O)c3ccc(F)cc3)ccc2[nH]1
revertants (Salmonella typhimurium; Ames preincubation test; TA1537; 9.8 µg per plate, 3 days, without S9): 14 revertants per plate
